Published values from different studies.
Numbered parts are unrelated; each lists some results of a single study. Changes are numbered by the printed parent chain.

Set 1
Target: Sal-like protein 4, full length isoform A (SALL4, Homo sapiens, UniProt Q9UJQ4, residues 1-1053)
UniProt Q9UJQ4, sequence (whole entry, looked up): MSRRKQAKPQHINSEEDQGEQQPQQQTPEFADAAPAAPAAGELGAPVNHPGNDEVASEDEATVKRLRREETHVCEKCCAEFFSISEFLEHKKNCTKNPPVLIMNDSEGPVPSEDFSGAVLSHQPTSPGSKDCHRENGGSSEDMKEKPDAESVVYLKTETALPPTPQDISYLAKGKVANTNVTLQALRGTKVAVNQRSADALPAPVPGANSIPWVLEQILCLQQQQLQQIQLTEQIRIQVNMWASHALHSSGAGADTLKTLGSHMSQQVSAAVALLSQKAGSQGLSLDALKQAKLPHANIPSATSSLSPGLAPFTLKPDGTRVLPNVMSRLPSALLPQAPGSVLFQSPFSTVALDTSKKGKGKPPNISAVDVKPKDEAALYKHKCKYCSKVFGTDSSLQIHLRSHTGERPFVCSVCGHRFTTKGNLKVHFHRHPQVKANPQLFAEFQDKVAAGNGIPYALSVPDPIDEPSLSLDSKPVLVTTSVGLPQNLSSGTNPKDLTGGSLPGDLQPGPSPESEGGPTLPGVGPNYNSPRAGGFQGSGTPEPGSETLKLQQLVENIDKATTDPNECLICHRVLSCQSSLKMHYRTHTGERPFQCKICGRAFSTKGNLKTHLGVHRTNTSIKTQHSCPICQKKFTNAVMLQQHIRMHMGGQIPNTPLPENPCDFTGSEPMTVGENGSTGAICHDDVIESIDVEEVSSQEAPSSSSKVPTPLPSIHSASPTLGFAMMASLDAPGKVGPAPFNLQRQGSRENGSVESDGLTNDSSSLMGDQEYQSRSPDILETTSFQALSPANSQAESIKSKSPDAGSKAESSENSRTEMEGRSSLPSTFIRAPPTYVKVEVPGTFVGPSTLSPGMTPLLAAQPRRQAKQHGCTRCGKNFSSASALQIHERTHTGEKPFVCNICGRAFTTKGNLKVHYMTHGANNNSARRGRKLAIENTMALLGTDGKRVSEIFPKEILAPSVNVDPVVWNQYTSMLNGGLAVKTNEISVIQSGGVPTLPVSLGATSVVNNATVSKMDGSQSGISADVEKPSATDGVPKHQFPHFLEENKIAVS
Technique: universal PBM
Form: double-stranded DNA, one strand shown
Matrix: in vitro
Tested at: 600 nM
Setting: 8-mer, flanks averaged, mean of replicates
Reading: higher = stronger binding
| Oligonucleotide | E-score |
| --- | --- |
| GACGACCA | -0.0759 |
| CTACGTGC | -0.0474 |
| AATAACAT | 0.391 |
| GCTAGACC | -0.261 |
| ACGGACCA | -0.156 |
| GTCGCGGA | -0.344 |
| CGTGAGAC | -0.0946 |
| GCCGCTCA | -0.24 |
| ATACCGAG | 0.0545 |
| TCGCACCA | -0.0102 |
| GCGTTTTA | 0.0749 |
| CACTTTCG | 0.167 |
| GGATCTGA | -0.0939 |
| GGTACATA | 0.16 |
| CCCATTTC | -0.0538 |
| AGCCGGTG | -0.318 |
| GACACGGC | -0.209 |
| CCTAGAGA | -0.0818 |
| AGGGTCCC | -0.268 |
| GAAGAGAA | 0.0974 |
| GGGGTCAA | -0.0736 |
| AGGTTAAT | 0.197 |

Set 2
Target: Centromere-binding protein 1, full length, His-tagged (CBF1, Saccharomyces cerevisiae, UniProt P17106, residues 1-351)
UniProt P17106, sequence (whole entry, looked up): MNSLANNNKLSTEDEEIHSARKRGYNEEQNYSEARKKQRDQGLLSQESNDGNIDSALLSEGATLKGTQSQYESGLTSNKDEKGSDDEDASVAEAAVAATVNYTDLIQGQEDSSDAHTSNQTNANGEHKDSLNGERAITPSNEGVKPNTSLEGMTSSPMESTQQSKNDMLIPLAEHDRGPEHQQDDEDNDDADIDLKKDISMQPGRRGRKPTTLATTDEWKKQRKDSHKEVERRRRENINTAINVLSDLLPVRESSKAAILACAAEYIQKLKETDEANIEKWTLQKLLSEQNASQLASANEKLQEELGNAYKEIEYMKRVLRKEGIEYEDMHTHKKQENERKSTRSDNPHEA
Technique: competition protein-binding microarray
Form: double-stranded DNA, one strand shown
Matrix: in vitro
Tested at: 2 µM
Setting: whole 60-bp probe, lowest competitor level
With: Pho4 competitor, 0.05 µM
Reading: higher = stronger binding
Shared flanks, not repeated: … GTCTTGATTCGCTTGACGCTGCTG
| Oligonucleotide | fluorescence intensity |
| --- | --- |
| CATACCCAACCTTGTCACTACACTTAAGATATTTGT | 73.6 a.u. |
| CTTCCGATAACTCCGCACGGCAAGGAGTAGTGGCGA | 55.5 a.u. |
| ACATTGGTCTGAAAACACGTGTAGTACTTTCTCCTT | 916 a.u. |
| GTCTTGTCTCATTGGTCAGTGGGTGTCCCCACTTCA | 86.9 a.u. |
| AGTACATTCACTTCTAACGTGACGGGTTTCACCACA | 178 a.u. |
| CGTCCTAGTGATTTTCACGTGCCATCCATGAGGAAG | 1340 a.u. |
| TGAACCCTTGATATAAACGTGATGGTTATTATCGGT | 457 a.u. |
| CAACAGTCAAAGGACCTCATGACAGATGGTACTTCG | 84.1 a.u. |
| AAGCGCCAAGTACAGAACGTGACGGTAAGAAAGAAT | 284 a.u. |
| GTCTTGTCTCATTTTCACGTGCGCTTCCCCACTTCA | 750 a.u. |
| CTAACGAAGGTTTGTAGGGTGGGTGACAAGCCAAGT | 61 a.u. |
| CATACCCAACCTTGACCGGTGGGTGAAGATATTTGT | 62.3 a.u. |
| AACCGAATGGCATCGCACGCTATGCAACTAATGACC | 87.2 a.u. |
| CTTTCCCGATCTTGTGCAGTGGGTGTAGCACATTTG | 77.1 a.u. |
| CGTCCTAGTGATTTTCACGTGTATTCCATGAGGAAG | 993 a.u. |
| GAGTTATAATTTCACCACGTGAGCCCGATGAAATAG | 2130 a.u. |
| CTAACGAAGGTTTGTCACCTAACTTACAAGCCAAGT | 70.8 a.u. |
| GCTTGGCATCCGTCCCACGTTATGTGGAGTGTTGCC | 70.8 a.u. |

Set 3
Target: RNA binding protein fox-1 homolog 2, RRM domain, GST-SBP tag (RBFOX2, Homo sapiens, UniProt O43251-10, residues 100-194)
Technique: RNA Bind-n-Seq
Form: RNA
Matrix: in vitro
Tested at: 365 nM
Setting: natural RNA segment, single round, ends assumed
Reference: no-protein control
Reading: higher = stronger binding
Shared flanks, not repeated: GGGAGUUCUACAGUCCGACGAUC … UGGAAUUCUCGGGUGCCAA
Construct (chain): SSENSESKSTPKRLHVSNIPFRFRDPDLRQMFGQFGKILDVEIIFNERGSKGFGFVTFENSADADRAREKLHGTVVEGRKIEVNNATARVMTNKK
| Oligonucleotide | RBNS enrichment (R) |
| --- | --- |
| UCAGUUUUGCUCCCUCUGGGUUUUUAUAAGAUUUGCCAUGACAUUUCAUCUGGGUGGUCCAGAUAGUAAAGCGCUUUUAUUUCUGGAGCUGGGGAAGCAGAUGACUCUUC | 0.585 |
| AAUUUUGGAAAAAAAGAAAUGUGAAGGGUCAACUCCAACGUAUGUGGUUAUCUGUGAAAGUUGCACAGCGUGGCUUUUCCUAAACUGGUGUUUUUCCCCCGCAUUUGGUG | 0.443 |
| CAUCUUUCUGCCUGUCACCGGGUGUGCUGUUUUUCUGAAAAAAAAACAGGCCCCAAGGGCCCUGAGCCUCCAGCCCAAACCCUUAGACCUCUGGGAUCACGUUGAGUUCU | 0.234 |
| UGCUUUCUUUUUUUUUUUCUUUUUGAUGCCUUAAUGUAGAUAUCUUUAUCAUUCUGAAUUGUAUUAUAUAUUUAAAGUGCUCAUUAAUAGAAUGAUGGAUGUAAAUUGGA | 0.632 |
| UGGGUACUGGAUAGGAACACUGAGAAAGCAAAGCCAAUAGCCGUGAGGACGAGGAAGUUUCUGCCACUGCUUGCAGCUUUUCUGUGUGCUUUGGACUUGCUUUAGGAGGG | 0.532 |
| CCUUUUCUCCCUCCCUCUCCCUCUGCAAGCCAAGCUGCAUGCACCCAUGCAUGAGUGGUUCUUGCACCCCUGAAUGAGGAAUGCUUCCUCUGUGACAGGCUCCUCCCCAC | 5.79 |
| CCAAGGGGCUGCUAGUAUAUGUCAGACAUGAAAACUAUUUUAAAGCUGACUUUGUUGCCUUAUCUUGAAAAGAAUCUAGAUAGGUGCUUUUAACUGGGGUAUUAACUUUU | 0.51 |
| AUGAUGAUUGGUGUAGAAACGUAUGGGUCUGGGUGGCCUUUUACAUCUUGCCUACCAUUGCAUGAAACAUUGGGGUUUCUUCAAAAUGUGUGUGUCAUACUUCUUUUGGG | 1.97 |
| UGGAAGGGAACUGGGCCUCGGUGGCCGGGGCCGCGAGCUGUGACCACAGCACCCUCAAGCAUACGGCGCUGUUCCUGCCACUGUCCUGAAGAUGUGAAUGGGUGGUACGA | 0.66 |
| GAUUCACUGUAAGUGUUCUGUGGCCUAACUAGUGAGAGAUGCUUCAAAUAAACUAAGUUUUUAUGAGUACAUCUAUAAGGGUCGAUAUUUCAUUUUAUAAAUAACUAAAU | 0.483 |
| CUCCCUGCUAUUGUGGACCUAAGCAAUUACAGUUUAAAUUCUGUAUACAGCACUAGUCAAGACAAUGUGAUAUCCUUCCACCUUCCCCCUUUAUUUCAAGAAAUGCAUAG | 0.902 |
| GCAAGCCCCCAGCCCUUCCUGAAGCCCGUGCUCUGCCCAGCACUCGGAUGCUGCUCUUUUCUUGCUUACCAACCAACUCCAUUUGCUUGUGAUGGCCCCAUUUUUACAGU | 11.3 |

Set 4
Target: Prothrombin, mature alpha-thrombin (F2, Homo sapiens, UniProt P00734)
Technique: aptamer microarray, sandwich
Form: DNA with 2'F-ANA
Matrix: in vitro
Tested at: 200 nM
Setting: whole 15-mer aptamer, many near background
With: Cy3 exosite-II aptamer, 400 nM
Reading: higher = stronger binding
Oligonucleotide: GGTTGGTGTGGTTGG
| Modification | mean fluorescence intensity |
| --- | --- |
| 2'F-ANA at 3 4 6 7 8 9 11 12 13 14 15 | 246 a.u. |
| 2'F-ANA at 2 4 5 6 7 13 14 | 51.8 a.u. |
| 2'F-ANA at 1 2 3 9 10 14 15 | 64.9 a.u. |
| 2'F-ANA at 1 4 6 7 9 11 13 15 | 71.1 a.u. |
| 2'F-ANA at 6 7 8 10 14 15 | 112 a.u. |
| 2'F-ANA at 1 2 4 6 13 14 15 | 61.2 a.u. |
| 2'F-ANA at 1 2 3 4 7 8 9 11 12 15 | 317 a.u. |
| 2'F-ANA at 7 8 10 12 14 | 131 a.u. |
| 2'F-ANA at 1 3 4 5 6 7 9 10 14 | 46.7 a.u. |
| 2'F-ANA at 1 2 6 10 13 15 | 48.9 a.u. |
| 2'F-ANA at 2 3 4 6 10 12 13 14 15 | 165 a.u. |
| 2'F-ANA at 2 3 4 5 8 10 12 13 15 | 49.2 a.u. |
| 2'F-ANA at 3 4 8 9 10 12 14 15 | 212 a.u. |
| 2'F-ANA at 1 6 11 14 | 62.7 a.u. |
| 2'F-ANA at 3 4 5 6 7 8 9 10 13 15 | 74.3 a.u. |
| 2'F-ANA at 1 2 3 4 5 6 9 10 12 14 15 | 58.3 a.u. |
| 2'F-ANA at 1 2 4 5 6 8 9 11 14 15 | 51.1 a.u. |
| 2'F-ANA at 3 6 8 9 10 12 15 | 509 a.u. |
| 2'F-ANA at 1 3 5 6 9 12 | 141 a.u. |
| 2'F-ANA at 1 2 4 5 6 11 13 15 | 50.1 a.u. |
| 2'F-ANA at 3 4 6 8 10 12 13 | 279 a.u. |
| 2'F-ANA at 1 2 3 4 5 9 10 12 13 | 46.8 a.u. |
| 2'F-ANA at 4 8 11 14 15 | 110 a.u. |
| 2'F-ANA at 1 3 4 7 8 9 10 11 13 14 | 50.6 a.u. |
| 2'F-ANA at 1 6 8 9 12 13 14 15 | 69.1 a.u. |

Set 5
Target: CCNA1, cyclin fold, Cln2 fusion (human)
Technique: yeast growth competition, sequencing
Matrix: yeast
Setting: weak parent motif
Reference: not given
Reading: higher = stronger binding
Starting sequence: CDC6 docking peptide (human); TLKGRRLVFDNQL
| Change | normalised enrichment score |
| --- | --- |
| KLKGRRLVFDNQL [T1K] | 0.661 |
| TLKGRRLVLDNQL [F9L] | 0.268 |
| TLAGRRLVFDNQL [K3A] | 0.0966 |
| TLVGRRLVFDNQL [K3V] | 0.431 |
| TLKGWRLVFDNQL [R5W] | -0.0175 |
| TLKGRILVFDNQL [R6I] | 0.0285 |
| TLKGRRLVEDNQL [F9E] | 0.652 |
| TLKGRRLVFDKQL [N11K] | 0.157 |
| TTKGRRLVFDNQL [L2T] | -0.104 |
| TLKGRMLVFDNQL [R6M] | 0.562 |
| TLKVRRLVFDNQL [G4V] | 0.0681 |
| TLMGRRLVFDNQL [K3M] | 0.109 |
| TIKGRRLVFDNQL [L2I] | -0.179 |
| TKKGRRLVFDNQL [L2K] | 0.47 |
| TLKGRRLVFDNNL [Q12N] | 0.136 |
| TLKGRRLVFDNQQ [L13Q] | 0.434 |
| TLKGRRLTFDNQL [V8T] | 0.25 |
| TLKGRRSVFDNQL [L7S] | 0.000771 |
| TLKGRRLVFDNTL [Q12T] | 0.196 |
| TLKGRRLVFPNQL [D10P] | -0.056 |
| TLKGQRLVFDNQL [R5Q] | -0.35 |
| TLKGKRLVFDNQL [R5K] | -0.0916 |
| TLSGRRLVFDNQL [K3S] | 0.312 |
| TLKGRRRVFDNQL [L7R] | 0.499 |
| TLKGDRLVFDNQL [R5D] | -0.0495 |

Excerpt of the above (set 4):
| Modification | mean fluorescence intensity |
| --- | --- |
| 2'F-ANA at 3 6 8 9 10 12 15 | 509 a.u. |
| 2'F-ANA at 1 3 5 6 9 12 | 141 a.u. |
| 2'F-ANA at 1 2 4 5 6 11 13 15 | 50.1 a.u. |
| 2'F-ANA at 3 4 6 8 10 12 13 | 279 a.u. |
| 2'F-ANA at 1 2 3 4 5 9 10 12 13 | 46.8 a.u. |
| 2'F-ANA at 4 8 11 14 15 | 110 a.u. |
| 2'F-ANA at 1 3 4 7 8 9 10 11 13 14 | 50.6 a.u. |
| 2'F-ANA at 1 6 8 9 12 13 14 15 | 69.1 a.u. |
